Measured values pooled from the literature.
Parts stem from different laboratories: compare values within a part only.
Sequence of UniProt Q15569 (whole entry, looked up): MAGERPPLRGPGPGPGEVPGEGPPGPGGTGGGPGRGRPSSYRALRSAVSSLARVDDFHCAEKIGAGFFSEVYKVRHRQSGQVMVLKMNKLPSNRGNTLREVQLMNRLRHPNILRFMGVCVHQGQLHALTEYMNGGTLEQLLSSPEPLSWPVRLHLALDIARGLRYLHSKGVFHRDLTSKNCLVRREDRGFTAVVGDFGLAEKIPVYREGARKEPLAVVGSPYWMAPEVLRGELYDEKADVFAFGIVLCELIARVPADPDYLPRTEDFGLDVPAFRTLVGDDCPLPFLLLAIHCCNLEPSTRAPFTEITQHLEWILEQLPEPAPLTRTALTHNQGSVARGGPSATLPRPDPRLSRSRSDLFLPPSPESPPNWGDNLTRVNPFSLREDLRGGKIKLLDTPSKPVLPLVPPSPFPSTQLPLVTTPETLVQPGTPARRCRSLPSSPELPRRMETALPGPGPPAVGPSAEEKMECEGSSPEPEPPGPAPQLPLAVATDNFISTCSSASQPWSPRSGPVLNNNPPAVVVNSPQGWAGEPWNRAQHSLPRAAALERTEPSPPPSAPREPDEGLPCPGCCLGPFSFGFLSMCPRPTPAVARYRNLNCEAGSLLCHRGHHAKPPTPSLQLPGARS
Sequence of UniProt P10721 (whole entry, unmodified, looked up): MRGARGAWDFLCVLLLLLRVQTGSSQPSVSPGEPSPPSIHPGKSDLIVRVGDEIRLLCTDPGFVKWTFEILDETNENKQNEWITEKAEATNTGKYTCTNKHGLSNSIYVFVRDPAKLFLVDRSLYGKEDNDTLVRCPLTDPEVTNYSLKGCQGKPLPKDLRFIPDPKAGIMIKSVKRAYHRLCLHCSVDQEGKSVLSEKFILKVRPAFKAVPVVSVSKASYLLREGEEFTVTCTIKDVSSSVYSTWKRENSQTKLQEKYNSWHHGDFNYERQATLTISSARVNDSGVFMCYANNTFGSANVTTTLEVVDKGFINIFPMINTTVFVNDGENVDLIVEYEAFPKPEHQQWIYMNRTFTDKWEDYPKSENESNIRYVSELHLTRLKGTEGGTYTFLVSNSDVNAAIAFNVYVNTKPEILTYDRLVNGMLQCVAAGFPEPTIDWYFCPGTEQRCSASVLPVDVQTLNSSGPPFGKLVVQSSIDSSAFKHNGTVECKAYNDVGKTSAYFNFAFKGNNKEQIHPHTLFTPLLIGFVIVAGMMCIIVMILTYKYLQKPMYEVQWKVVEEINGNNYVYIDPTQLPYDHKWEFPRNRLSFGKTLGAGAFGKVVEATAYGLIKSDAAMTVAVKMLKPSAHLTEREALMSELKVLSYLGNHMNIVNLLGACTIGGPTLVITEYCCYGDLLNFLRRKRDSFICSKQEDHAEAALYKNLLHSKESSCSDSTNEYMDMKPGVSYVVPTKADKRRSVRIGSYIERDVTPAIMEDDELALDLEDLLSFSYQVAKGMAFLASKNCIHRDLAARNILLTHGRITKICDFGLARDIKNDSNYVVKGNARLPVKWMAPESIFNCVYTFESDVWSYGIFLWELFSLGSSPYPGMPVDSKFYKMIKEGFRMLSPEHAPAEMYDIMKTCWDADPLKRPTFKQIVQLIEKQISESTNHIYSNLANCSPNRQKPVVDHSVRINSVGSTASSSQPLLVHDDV
Sequence of UniProt Q86YV6 (whole entry, looked up): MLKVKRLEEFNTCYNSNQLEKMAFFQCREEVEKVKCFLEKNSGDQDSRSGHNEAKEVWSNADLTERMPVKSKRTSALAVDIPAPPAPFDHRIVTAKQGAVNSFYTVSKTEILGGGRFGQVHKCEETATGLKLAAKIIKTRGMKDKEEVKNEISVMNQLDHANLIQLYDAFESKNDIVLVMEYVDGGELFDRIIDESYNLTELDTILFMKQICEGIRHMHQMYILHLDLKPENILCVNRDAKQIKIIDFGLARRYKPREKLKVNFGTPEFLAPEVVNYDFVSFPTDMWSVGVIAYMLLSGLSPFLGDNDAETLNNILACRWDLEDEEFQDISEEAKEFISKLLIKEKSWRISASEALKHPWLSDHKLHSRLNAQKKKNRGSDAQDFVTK
Sequence of UniProt Q9H0K1 (whole entry, looked up): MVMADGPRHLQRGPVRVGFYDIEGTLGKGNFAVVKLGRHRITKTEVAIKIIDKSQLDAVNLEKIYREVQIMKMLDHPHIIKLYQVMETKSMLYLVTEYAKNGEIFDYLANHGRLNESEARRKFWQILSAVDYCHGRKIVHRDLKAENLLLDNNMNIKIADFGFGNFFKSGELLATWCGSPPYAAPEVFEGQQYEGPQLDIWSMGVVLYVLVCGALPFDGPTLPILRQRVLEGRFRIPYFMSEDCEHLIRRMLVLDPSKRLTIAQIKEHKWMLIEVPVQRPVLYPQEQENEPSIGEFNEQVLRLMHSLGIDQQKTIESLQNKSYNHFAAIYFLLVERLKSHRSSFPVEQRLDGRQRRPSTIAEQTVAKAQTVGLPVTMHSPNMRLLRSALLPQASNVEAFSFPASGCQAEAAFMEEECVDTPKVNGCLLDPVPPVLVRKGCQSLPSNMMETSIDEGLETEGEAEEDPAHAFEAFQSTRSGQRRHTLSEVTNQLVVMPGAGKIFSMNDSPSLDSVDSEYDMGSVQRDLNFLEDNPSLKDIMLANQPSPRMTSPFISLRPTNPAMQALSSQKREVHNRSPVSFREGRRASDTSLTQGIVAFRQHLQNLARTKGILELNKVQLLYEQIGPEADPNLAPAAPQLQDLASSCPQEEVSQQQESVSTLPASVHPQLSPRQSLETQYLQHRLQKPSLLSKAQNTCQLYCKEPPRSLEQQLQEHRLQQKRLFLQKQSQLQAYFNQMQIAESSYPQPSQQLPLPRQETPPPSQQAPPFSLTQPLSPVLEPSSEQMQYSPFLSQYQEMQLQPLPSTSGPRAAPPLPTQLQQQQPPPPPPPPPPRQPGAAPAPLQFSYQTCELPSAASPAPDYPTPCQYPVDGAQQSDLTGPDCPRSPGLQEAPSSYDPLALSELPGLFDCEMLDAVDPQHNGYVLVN
Sequence of UniProt P48730 (whole entry, looked up): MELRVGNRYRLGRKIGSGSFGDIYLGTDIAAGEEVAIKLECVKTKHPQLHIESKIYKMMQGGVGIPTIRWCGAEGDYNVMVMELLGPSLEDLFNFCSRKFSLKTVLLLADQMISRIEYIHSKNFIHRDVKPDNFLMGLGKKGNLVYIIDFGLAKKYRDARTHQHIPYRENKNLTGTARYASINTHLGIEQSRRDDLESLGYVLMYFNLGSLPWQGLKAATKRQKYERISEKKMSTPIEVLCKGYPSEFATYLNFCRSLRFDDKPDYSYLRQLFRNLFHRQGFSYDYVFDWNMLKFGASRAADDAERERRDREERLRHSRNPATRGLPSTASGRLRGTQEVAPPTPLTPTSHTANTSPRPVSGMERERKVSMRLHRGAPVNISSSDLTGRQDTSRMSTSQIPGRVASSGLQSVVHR
Sequence of UniProt Q15375 (whole entry, looked up): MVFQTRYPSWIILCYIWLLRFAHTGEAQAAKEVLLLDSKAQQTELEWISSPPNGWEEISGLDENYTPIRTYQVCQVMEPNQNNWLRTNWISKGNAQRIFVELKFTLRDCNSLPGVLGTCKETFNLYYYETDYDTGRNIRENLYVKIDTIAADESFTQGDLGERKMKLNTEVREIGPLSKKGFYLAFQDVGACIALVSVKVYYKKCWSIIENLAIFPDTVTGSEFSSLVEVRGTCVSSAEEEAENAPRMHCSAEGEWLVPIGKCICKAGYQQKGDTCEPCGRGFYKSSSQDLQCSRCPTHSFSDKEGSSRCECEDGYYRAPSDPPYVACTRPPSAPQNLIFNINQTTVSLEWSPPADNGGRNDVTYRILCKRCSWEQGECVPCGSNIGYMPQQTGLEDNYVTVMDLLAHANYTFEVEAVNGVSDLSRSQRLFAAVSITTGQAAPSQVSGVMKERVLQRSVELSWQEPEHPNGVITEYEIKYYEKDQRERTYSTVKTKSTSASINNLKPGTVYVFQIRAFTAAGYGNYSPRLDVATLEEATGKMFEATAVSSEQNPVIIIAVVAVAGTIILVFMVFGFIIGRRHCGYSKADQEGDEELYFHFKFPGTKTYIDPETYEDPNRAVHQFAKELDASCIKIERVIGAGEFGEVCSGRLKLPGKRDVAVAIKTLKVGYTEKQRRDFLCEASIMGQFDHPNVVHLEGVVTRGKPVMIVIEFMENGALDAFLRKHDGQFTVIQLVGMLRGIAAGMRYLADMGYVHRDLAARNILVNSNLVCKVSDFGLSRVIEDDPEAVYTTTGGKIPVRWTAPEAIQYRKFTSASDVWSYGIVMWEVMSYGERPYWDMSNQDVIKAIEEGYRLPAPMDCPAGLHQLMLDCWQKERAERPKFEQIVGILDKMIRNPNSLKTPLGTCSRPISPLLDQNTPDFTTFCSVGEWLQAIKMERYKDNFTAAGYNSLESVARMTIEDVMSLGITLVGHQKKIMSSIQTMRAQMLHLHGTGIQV

Block 1
Target: Ras GTPase-activating protein-binding protein 1, C-terminal RGG region (G3BP1, Homo sapiens, UniProt Q13283)
Sequence of UniProt Q13283 (whole entry, looked up): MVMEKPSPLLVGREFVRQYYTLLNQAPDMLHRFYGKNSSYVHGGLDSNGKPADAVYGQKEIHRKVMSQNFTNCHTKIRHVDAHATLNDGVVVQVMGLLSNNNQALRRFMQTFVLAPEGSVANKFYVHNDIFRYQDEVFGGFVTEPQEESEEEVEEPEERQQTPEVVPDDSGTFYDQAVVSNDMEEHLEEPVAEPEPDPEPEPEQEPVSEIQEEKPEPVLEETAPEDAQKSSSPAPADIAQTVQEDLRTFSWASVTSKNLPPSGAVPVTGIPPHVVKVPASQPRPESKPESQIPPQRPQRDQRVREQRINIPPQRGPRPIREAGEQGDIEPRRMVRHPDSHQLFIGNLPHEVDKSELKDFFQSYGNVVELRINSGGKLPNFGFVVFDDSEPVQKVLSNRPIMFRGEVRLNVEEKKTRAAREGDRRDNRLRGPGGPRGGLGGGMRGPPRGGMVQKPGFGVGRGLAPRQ
Technique: RNA Bind-n-Seq
Molecule type: RNA
Matrix: in vitro
Concentration: 1 µM
Setting: whole 134-nt RNA, ends assumed
Added: 150 mM KCl
Reference: input library
Reading: higher = stronger binding
Measurement: log2 enrichment
Shared flanks, not repeated: GGGAGUUCUACAGUCCGACGAUC … UGGAAUUCUCGGGUGUCAAGG
CAAGUCCUGUGCUACACAUCGUAUGUACCGAAUCGGGUUUGGGGUUUGGGUUUGGGAAAGUAUUAUGUUACGCCGUUCGGAUCUGCACUU: 1.97
UGAAAAUGCUUUCAUGUUAAUUGUGUACACACAUUUCAUCUGUAUCCCUGUUUCUUUUCUCCCUACAGAAACAUAUGAGGAUUUUGAUAC: -0.501
UAACUUUAGAGGAGGAUCUGAUGGAUAUGGCAGUGGACGUGGAUUUGGGGAUGGCUAUAAUGGGUAUGAAGGAGGACCUGGAGGUGGCAA: -0.8
AAGUCCUGUGCUACACAUCGUAUGUACCGAAUCGGGUUUGGGUUUUUUUGGGUGGGAAAGUAUUAUGUUACGCCGUUCGGAUCUGCACUU: 0.678
UAACUUUAGAUGAGGAUCUGAUGGAUAUGGCAGUGGACGUGGAUUUGGGGAUGGCUAUAAUGGGUAUGGAGGAGGACCUGGAGGUGGCAA: -1.65
UCAAGUCCUGUGCUACACAUCGUAUGUACCGAAUCGGUUUUUGGUUUGGAAAGGAAAGUAUUAUGUUACGCCGUUCGGAUCUGCACUUCC: -1.35
ACCAUGCAGGUGGGCAUCUUUGGGAAGUGGGGCAAGGGGGGGAUAGGGAGGGGGGUAACACUUUGGGAACAAAAGGUCCCAGGUCGUUUC: -0.0906
CCUGUGCUACACAUCGUAUGUACCGAAUCGGGUUUUUUGGGGUUUUUUGGGGUUUUUUGGAAAGUAUUAUGUUACGCCGUUCGGAUCUGC: -1.12

Block 2
Compound: CNCc1ccccc1-c1csc([C@@H](C)Nc2nc(C)nc3cc(OC)c(OC)cc23)c1
Effect on: cell-free assay
Technique: competition with immobilised ligand
Concentration: 1 µM
Measurement: remaining binding
Serine/threonine-protein kinase NLK (NLK, Homo sapiens, UniProt Q9UBE8): 84%
Ephrin type-A receptor 7 (EPHA7, Homo sapiens, UniProt Q15375): 100%
cGMP-dependent protein kinase 1 (PRKG1, Homo sapiens, UniProt Q13976): 100%
5'-AMP-activated protein kinase catalytic subunit alpha-2 (PRKAA2, Homo sapiens, UniProt P54646): 97%
Rho-associated protein kinase 2 (ROCK2, Homo sapiens, UniProt O75116): 93%
Dual specificity protein kinase TTK (TTK, Homo sapiens, UniProt P33981): 97%
Myosin light chain kinase family member 4 (MYLK4, Homo sapiens, UniProt Q86YV6): 99%
Protein kinase C epsilon type (PRKCE, Homo sapiens, UniProt Q02156): 74%
Serine/threonine-protein kinase DCLK3 (DCLK3, Homo sapiens, UniProt Q9C098): 95%
Epidermal growth factor receptor (EGFR, Homo sapiens, UniProt P00533, del747-752/P753S): 61%
Phosphatidylinositol 3-kinase catalytic subunit type 3 (PIK3C3, Homo sapiens, UniProt Q8NEB9): 100%
Hormonally up-regulated neu tumor-associated kinase (HUNK, Homo sapiens, UniProt P57058): 100%
Tyrosine-protein kinase JAK1, JH2 (JAK1, Homo sapiens, UniProt P23458): 73%
Dual specificity testis-specific protein kinase 1 (TESK1, Homo sapiens, UniProt Q15569): 83%
Phosphatidylinositol 4-phosphate 3-kinase C2 domain-containing subunit beta (PIK3C2B, Homo sapiens, UniProt O00750): 86%
Fibroblast growth factor receptor 4 (FGFR4, Homo sapiens, UniProt P22455): 100%
Mast/stem cell growth factor receptor Kit (KIT, Homo sapiens, UniProt P10721, D816H): 85%
Tyrosine-protein kinase ABL1, non-phosphorylated (ABL1, Homo sapiens, UniProt P00519, F317L): 86%
Myosin light chain kinase, smooth muscle (MYLK, Homo sapiens, UniProt Q15746): 84%
Dual specificity mitogen-activated protein kinase kinase 2 (MAP2K2, Homo sapiens, UniProt P36507): 82%

Block 3
SMILES: O=Nc1c(-c2c(O)[nH]c3cc(Br)ccc23)[nH]c2ccccc12
Effect on: enzyme activity
Action: inhibitor
Concentration: 0.5 µM
Reference: control
Measurement: remaining activity
Dual specificity protein kinase CLK1 (CLK1, Homo sapiens, UniProt P49759): 93.1%
Ribosomal protein S6 kinase alpha-3 (RPS6KA3, Homo sapiens, UniProt P51812): 65.7%
Dual specificity protein kinase CLK2 (CLK2, Homo sapiens, UniProt P49760): 91.9%
Mitogen-activated protein kinase kinase kinase 20 (MAP3K20, Homo sapiens, UniProt Q9NYL2): 69%
Insulin-like growth factor 1 receptor (IGF1R, Homo sapiens, UniProt P08069): 103%
Casein kinase I isoform epsilon (CSNK1E, Homo sapiens, UniProt P49674): 83.7%
Protein kinase C zeta type (PRKCZ, Homo sapiens, UniProt Q05513): 100%
Serine/threonine-protein kinase SIK2 (SIK2, Homo sapiens, UniProt Q9H0K1): 31.1%
Calcium/calmodulin-dependent protein kinase kinase 1 (CAMKK1, Homo sapiens, UniProt Q8N5S9): 50.5%
Muscle, skeletal receptor tyrosine-protein kinase (MUSK, Homo sapiens, UniProt O15146): 84.5%
Cyclin-dependent kinase 2, with cyclin E (CDK2, Homo sapiens, UniProt P24941): 15.4%
Calcium/calmodulin-dependent protein kinase type 1 (CAMK1, Homo sapiens, UniProt Q14012): 96%
Serine/threonine-protein kinase Sgk2 (SGK2, Homo sapiens, UniProt Q9HBY8): 73%
SRSF protein kinase 1 (SRPK1, Homo sapiens, UniProt Q96SB4): 94.9%
Tyrosine-protein kinase Tec (TEC, Homo sapiens, UniProt P42680): 104%
Casein kinase I isoform delta (CSNK1D, Homo sapiens, UniProt P48730): 85.4%

Block 4
Partner: CHTOP (Homo sapiens, UniProt Q9Y3Y2)
Technique: cross-linking MS
Matrix: cell fractions
Added: DSSO
Measurement: cross-linked residues
DDX39B (Homo sapiens, UniProt Q13838): K188 to S225
POLDIP3 (Homo sapiens, UniProt Q9BY77): K144 to K81
FYTTD1 (Homo sapiens, UniProt Q96QD9): K166 to K81

A few entries again (block 2):
Mast/stem cell growth factor receptor Kit (KIT, Homo sapiens, UniProt P10721, D816H): 85%
Fibroblast growth factor receptor 4 (FGFR4, Homo sapiens, UniProt P22455): 100%
Dual specificity mitogen-activated protein kinase kinase 2 (MAP2K2, Homo sapiens, UniProt P36507): 82%
Myosin light chain kinase, smooth muscle (MYLK, Homo sapiens, UniProt Q15746): 84%
Hormonally up-regulated neu tumor-associated kinase (HUNK, Homo sapiens, UniProt P57058): 100%
